# Experimental data collected from several papers.
# Parts stem from different laboratories: compare values within a part only.

# Sample 1
# Target: RNA binding protein fox-1 homolog 2, RRM domain, GST-SBP tag (RBFOX2, Homo sapiens, UniProt O43251-10, residues 100-194)
# Method: RNA Bind-n-Seq
# Form: RNA
# Sample: in vitro
# Concentration: 365 nM
# Setting: natural RNA segment, single round, ends assumed
# Reference: no-protein control
# Direction: higher = stronger binding
# Constant ends, left off below: GGGAGUUCUACAGUCCGACGAUC … UGGAAUUCUCGGGUGCCAA
# Residues (chain): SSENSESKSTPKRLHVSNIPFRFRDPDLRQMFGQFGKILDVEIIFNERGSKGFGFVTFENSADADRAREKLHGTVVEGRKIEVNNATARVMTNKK
Sequence,RBNS enrichment (R)
GUCCAAUCAUGUGUGUGGUUCCUGCGAGUUGCUGAUGACUCCGCAUUGAAGCUCUCUGAGUUCUUUGAUUUUAAGUUGGGUUUAUGGAAUUUUUUCAAAUGUUGGAAGGU,0.758
GGCACCCAGACCACUGCCCACCAGUGACGGACAUGCACGUGGCAGAUCAUGAUUUCCAGCCCACGGAGCCAGCAUUUGAACCUUGUAUAAUUAACUUUCAGUUAUGAUUU,1.11
AACCUGCAGAAAUCUGGUAAGACUUAAAUUCAGUGUGAGGAAUAACUCUAGUUCUCUCCUAUGAGCAUUUCCUAAAAGCCAUCUGAUUUGGCAUUCUUACUGGAGCUGCA,0.625
UGUUGUUACAAAAAGUCUAAAUUACUGUUGGUUGAAACACAGCAGCUGUGGAGUUCAGUCCAGGCAUGAAGACUAAAUCUGCUUUACCAAGUAAGGUGUAAGGUUGCAUG,1.71
CUAUGGGUCAUAGUGACUCUGGAGAGGUCCUGGCAGCCCUGAGGAUGUGGAAACCACUAGGGGGCUCCAGAUUGGGUCUUCCUCCGCAGAACUUUAGGACUGGGGAGUGG,0.192
CAGUAAGCCUAAAAGUUAGCAGAAGAUGGCCUCCUGCCAGCAGGAAAUCUUUACCCUUUAGUACCCGAACCAGUCUCAAGGUGUUCUUUGGAAAUAACCAGGGUUAAAGU,0.442
GAGAGUGAAAAGGUAUUAAGGAAAAAGCCCCCAGCGGCACUAUGGGGGCUCCCUGGCGCAUGCCUGCUCCUGUCCCUGGAUUACCACACGUGCCCUCCCUGCCACCCUCC,0.782
UGUGCAUGGAGUGAGGUGUGUGUGUGUGGAUGGAUGUGCACGUGUGCAUGCUUUUUUUCUUUUUGCCGUGAGGACAGUUGAAUUUGGGGCAUUUUUCUACAAGAAGCAGU,14.4
UGGGCCUCUCGGAUGAAGGUGGACCCAAGUCAGAAGGAGCGCCAAAGGCCAAAUCAAAACCCCGGAAGCGGUUAGAAGAAAGCCAAGGAGGCCCCAAGCCAGGGGCAGUG,0.235
CGUGGUGUCCACCCGCCCCUCCUGGUGCCCACGGUGGAUACUGCAUGAUGUGAACCUUGGUUUUGAACUCUGUUCCUGCCCCUCCCCGACCGCCCCAGCCUGUGCCCGCC,1.8
GCUGCUGACGUUCUGAGCCAGGCAAGUGCACGGGGCUGUUGGAUGGCCAGUGGGGAGCUGGAAAAAACAAGGCAGCCUUUAGGAAGGCCAUGGUGCAUGUGUGUGCAUGC,2.11
ACAAACAUCAAGCAAUUCAGGUACUAGGAUAACAUGUCAGUUUUGCUGGGUUGGAGGUGGGUAUCAAGUGAUUAUUUCCUAUCAAGACAUCUUUAAAUUAUAGAGCUCAG,0.454

# Sample 2
# Target: Centromere-binding protein 1, full length, His-tagged (CBF1, Saccharomyces cerevisiae, UniProt P17106, residues 1-351)
# UniProt P17106, sequence (whole entry, looked up): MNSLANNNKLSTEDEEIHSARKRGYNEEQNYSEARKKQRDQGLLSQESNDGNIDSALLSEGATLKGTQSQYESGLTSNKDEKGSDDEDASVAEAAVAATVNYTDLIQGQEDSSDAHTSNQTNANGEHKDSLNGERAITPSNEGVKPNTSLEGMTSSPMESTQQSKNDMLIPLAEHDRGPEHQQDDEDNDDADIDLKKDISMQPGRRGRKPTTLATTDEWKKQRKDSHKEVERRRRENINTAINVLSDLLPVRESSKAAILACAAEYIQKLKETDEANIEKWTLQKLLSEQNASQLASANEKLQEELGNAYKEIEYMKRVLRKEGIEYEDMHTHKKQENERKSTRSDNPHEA
# Method: competition protein-binding microarray
# Form: double-stranded DNA, one strand shown
# Sample: in vitro
# Concentration: 2 µM
# Setting: whole 60-bp probe, lowest competitor level
# Added: Pho4 competitor, 0.05 µM
# Direction: higher = stronger binding
# Constant ends, left off below: … GTCTTGATTCGCTTGACGCTGCTG
Sequence,fluorescence intensity [a.u.]
GTCTTGTCTCATTGTCACGTAACTTTCCCCACTTCA,189
CTAACGAAGGTTTGGCTGGTGGGTGACAAGCCAAGT,45
TTGAAGGTGAAGCCTTCCGTGCAAAATGCGAAAAAA,67.5
CTCAGGTCGATGAGTCTCGTGGCCGCAAAGCTGATG,111
CGGGGTTAAGTTTGATAGGTGGGTGGCTTGCAGCAG,63.1
CGCCATCTTGGGCCCCGCGTGTTCCCGCCTTAGCGG,61
CTTTCCCGATCTTGGCCAGTGGGTGTAGCACATTTG,65.3
ATTGACATAATCAGAAACGTGCTTTATCAATTGTGC,202
AAATTACTAAGTTATCACGTGTTTTACCCCGTATGA,4920
ATTTTTCAATATTTTCACATGTGTGTCAATTTCTGC,238
AAAGCGGTAATTTGCAATGTGGGTGCAGATATCTAT,77.5
TGATGAGGACACCGACACGTGCAAACATGGTAGTGC,1070
AAATTACTAAGTTGTCACTATACTTACCCCGTATGA,76
AACCTGTCCAAATACCACATGCTTTCCATCGAGCCA,103
GTCCGCCATGTCCAACACGTTGCTGGCCGCAAAACG,72.7
GAAAGACGGACATACCGCGTGCGGAGAACTTTTTCA,75.1
CGGGGTTAAGTTTGCAACGTGGGTGGCTTGCAGCAG,92.3
ACCCGGGTGTCGTTATGCGTGATGGGCATCAATTTT,80.5
AGGATCTAAAACCATCACATGATGTTCTAGTGCGTC,1020
GATCAAACTGAGGATGACCTGGACATCTTGGTCGCT,86.3
AAAGCGGTAATTTGAAGTGTGGGTGCAGATATCTAT,79.8
GATTTTTTCAAATGGCACATGCTTCGGAAAAATGAT,290
TGCGCAACAACTTGTTCAGTGGGTGTATGTCTAGAA,67.2
GAAGTCGCCAGGGTGCGCGGGCACTCAGGGTAAGAG,51.1
TGCGCAACAACTTGACACGTGTTTTTATGTCTAGAA,2220

# Sample 3
# Target: Interferon regulatory factor 7, full length, phosphomimetic (IRF7, Homo sapiens, UniProt Q92985, residues 1-503, S471D/S472D/S475D/S476D/S477D/S483D/S484D/S487D)
# UniProt Q92985, sequence (whole entry, unmodified, looked up): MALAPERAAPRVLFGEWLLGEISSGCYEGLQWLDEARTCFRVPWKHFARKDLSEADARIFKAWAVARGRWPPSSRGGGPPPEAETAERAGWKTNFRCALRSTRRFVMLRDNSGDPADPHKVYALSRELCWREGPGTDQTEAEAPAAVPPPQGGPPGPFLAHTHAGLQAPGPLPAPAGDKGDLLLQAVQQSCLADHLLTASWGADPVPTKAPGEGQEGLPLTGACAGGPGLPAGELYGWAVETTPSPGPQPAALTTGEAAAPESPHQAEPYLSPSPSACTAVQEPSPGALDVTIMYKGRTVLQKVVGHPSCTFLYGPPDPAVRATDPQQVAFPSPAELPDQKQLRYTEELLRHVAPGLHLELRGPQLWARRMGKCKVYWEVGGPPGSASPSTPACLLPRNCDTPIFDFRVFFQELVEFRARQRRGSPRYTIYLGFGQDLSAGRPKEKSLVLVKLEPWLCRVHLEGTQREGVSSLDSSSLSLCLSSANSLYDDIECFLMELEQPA
# Method: protein-binding microarray
# Form: double-stranded DNA, one strand shown
# Sample: in vitro
# Concentration: 2200 nM top
# Setting: 60-bp whole probe
# Added: salmon DNA 0.4 mg/ml
# Reference: random background probes
# Direction: higher = stronger binding
# Constant ends, left off below: GCCTAGCAC … GTCTTGATTCGCTTGACGCTGCTG
Sequence,fitted relative affinity [z-score]
GACAGACTGGGTCTCGGGACGTGCTAG,-0.537
GACAAACTGGGGACTGGAGACGTGCTA,-0.209
GCCGGTTTCGACTATCGGGACGTGCTA,5.02
TCATCATTCCTGATCTCACTGTGCTAG,1.75
TTAGGTATCGGGTATCGGTAAGTGCTA,0.579
GCCGGTTTCGGTATCGGGACGTGCTAG,9.7
TTAGTTCTCAGACTGGATTAGTGCTAG,0.346
CTCTACCTCGTCATAGTAACGTGCTAG,1.37
TTAGGTTTCCTTTTCCTTTCGTGCTAG,8.55
GTCGGTATCGACTATCGGGACGTGCTA,0.694
GCCGATTTCGGGTATCGAGACGTGCTA,3.57
GTAGGTTTCGACTATCGGTTAGTGCTA,3.24
GTAGGTATCGACTATCGGTTAGTGCTA,0.37
TTAGTTTTCAGTATCGATTAGTGCTAG,2.73
TCTCTTTCCTTCTTGATGCAGTGCTAG,3.49
TCAACACTAATTTTTACACTGTGCTAG,0.17
TTAGATATTAGTATCGATTAGTGCTAG,0.182
GACGGTATCGACTTTCGGGGCGTGCTA,2.14
GTAGGACTGGGACTGGGTTAGTGCTAG,-0.891
GACGAACTGAGACTGTAGACGTGCTAG,-0.0138
TTGGATATCAGTTTCGATTAGTGCTAG,5.98
TTAGAACTGAGGCTGGATTAGTGCTAG,-0.728
TTAGGTCTCGGTATCGGATAGTGCTAG,0.545
TCACCTTTTAAGTTCTCACTGTGCTAG,1.48

# Sample 4
# Target: Ras GTPase-activating protein-binding protein 1, full length (G3BP1, Homo sapiens, UniProt Q13283)
# UniProt Q13283, sequence (whole entry, looked up): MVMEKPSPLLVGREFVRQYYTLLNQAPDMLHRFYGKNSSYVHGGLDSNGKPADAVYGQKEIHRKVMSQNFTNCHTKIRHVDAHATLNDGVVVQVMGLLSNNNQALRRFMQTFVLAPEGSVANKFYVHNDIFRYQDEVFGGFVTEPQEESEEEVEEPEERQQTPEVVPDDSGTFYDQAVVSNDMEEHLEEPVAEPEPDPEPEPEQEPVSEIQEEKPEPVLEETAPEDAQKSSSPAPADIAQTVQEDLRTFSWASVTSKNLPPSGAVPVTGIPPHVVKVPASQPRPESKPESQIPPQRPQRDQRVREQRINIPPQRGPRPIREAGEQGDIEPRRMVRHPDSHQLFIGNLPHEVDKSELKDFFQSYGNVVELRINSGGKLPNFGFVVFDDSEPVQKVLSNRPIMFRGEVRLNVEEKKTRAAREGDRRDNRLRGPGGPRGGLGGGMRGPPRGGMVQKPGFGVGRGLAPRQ
# Method: RNA Bind-n-Seq
# Form: RNA
# Sample: in vitro
# Concentration: 200 nM
# Setting: whole 134-nt RNA, ends assumed
# Added: 150 mM KCl
# Reference: input library
# Direction: higher = stronger binding
# Constant ends, left off below: GGGAGUUCUACAGUCCGACGAUC … UGGAAUUCUCGGGUGUCAAGG
Sequence,log2 enrichment
AGUCCUGUGCUACACAUCGUAUGUACCGAAUCGGGGUGGGGUUUGGGGAAAAAGGGGAAAGUAUUAUGUUACGCCGUUCGGAUCUGCACU,0.321
CAAGUCCUGUGCUACACAUCGUAUGUACCGAAUCGGGAAAGGGAAAAAGGGAGGGAAAGUAUUAUGUUACGCCGUUCGGAUCUGCACUUC,0.803
CUCAAGUCCUGUGCUACACAUCGUAUGUACCGAAUCGGGGUUGGUUGGGUUGGGAAAGUAUUAUGUUACGCCGUUCGGAUCUGCACUUCC,0.723
UGGGAGGUGGAUUUUGUUUAUUUUUUUAGCUCAUUUCAAGGGGUGGGAAUUUUUUUUUAAUAUGUGUCAUGAAUAAAGUUGUUUUUGAAA,0.163
GUCCUGUGCUACACAUCGUAUGUACCGAAUCGGGGUUUGGGGUGGGGAAAAAAAGGGGAAAGUAUUAUGUUACGCCGUUCGGAUCUGCAC,0.274
ACCAUGCAGGUGGGCAUCUUUGGGAAGUGGGGCAAGGGGGGGAUAGGGAGGGGGGUAACACUUUGGGAACAGAUGGUCCCAGGUCGUUUC,1.02
ACCAUGCAGGUGGGCAUCUUUGGGAAGUGGGGCAAGGGGGGGAUAGGGAGGGGGGUAAAACUUUGGGAACAGGUGGUCCCAGGUCGUUUC,1.08
UCAAGUCCUGUGCUACACAUCGUAUGUACCGAAUCGGUUUGGUUUGGGGUUUGGGAAAGUAUUAUGUUACGCCGUUCGGAUCUGCACUUC,-0.949
UCCUGUGCUACACAUCGUAUGUACCGAAUCGGGGUUUUUGGGGUUUGGGGUUUUUGGGGAAAGUAUUAUGUUACGCCGUUCGGAUCUGCA,0.86
CAAGUCCUGUGCUACACAUCGUAUGUACCGAAUCGGAAAGGUUUUUUUGGAAAGGAAAGUAUUAUGUUACGCCGUUCGGAUCUGCACUUC,-1.4
CUCAAGUCCUGUGCUACACAUCGUAUGUACCGAAUCGGGGUUGGUUGGGUUGGAAAGUAUUAUGUUACGCCGUUCGGAUCUGCACUUCCA,0.108
CUGUGCUACACAUCGUAUGUACCGAAUCGGGGAAAAAAAGGGGUUUUUGGGGUUUUUGGGGAAAGUAUUAUGUUACGCCGUUCGGAUCUG,-0.253
CAAGUCCUGUGCUACACAUCGUAUGUACCGAAUCGGGAAGGGGAAGGGGAAGGGGAAAGUAUUAUGUUACGCCGUUCGGAUCUGCACUUC,1.07
UUCUGAGAAGGUUGCGCAGCAGCUGUGCCCGGCAGUCUAGAGGCGCAGAAGAGGAAGCCAUCGCCUGGCCCCGGCUCUCUGGACCUUGUC,-1.13

# Some of these lines once more (sample 1):
Sequence,RBNS enrichment (R)
GGCACCCAGACCACUGCCCACCAGUGACGGACAUGCACGUGGCAGAUCAUGAUUUCCAGCCCACGGAGCCAGCAUUUGAACCUUGUAUAAUUAACUUUCAGUUAUGAUUU,1.11
AACCUGCAGAAAUCUGGUAAGACUUAAAUUCAGUGUGAGGAAUAACUCUAGUUCUCUCCUAUGAGCAUUUCCUAAAAGCCAUCUGAUUUGGCAUUCUUACUGGAGCUGCA,0.625
UGUUGUUACAAAAAGUCUAAAUUACUGUUGGUUGAAACACAGCAGCUGUGGAGUUCAGUCCAGGCAUGAAGACUAAAUCUGCUUUACCAAGUAAGGUGUAAGGUUGCAUG,1.71
CUAUGGGUCAUAGUGACUCUGGAGAGGUCCUGGCAGCCCUGAGGAUGUGGAAACCACUAGGGGGCUCCAGAUUGGGUCUUCCUCCGCAGAACUUUAGGACUGGGGAGUGG,0.192
CAGUAAGCCUAAAAGUUAGCAGAAGAUGGCCUCCUGCCAGCAGGAAAUCUUUACCCUUUAGUACCCGAACCAGUCUCAAGGUGUUCUUUGGAAAUAACCAGGGUUAAAGU,0.442
GAGAGUGAAAAGGUAUUAAGGAAAAAGCCCCCAGCGGCACUAUGGGGGCUCCCUGGCGCAUGCCUGCUCCUGUCCCUGGAUUACCACACGUGCCCUCCCUGCCACCCUCC,0.782
UGUGCAUGGAGUGAGGUGUGUGUGUGUGGAUGGAUGUGCACGUGUGCAUGCUUUUUUUCUUUUUGCCGUGAGGACAGUUGAAUUUGGGGCAUUUUUCUACAAGAAGCAGU,14.4
UGGGCCUCUCGGAUGAAGGUGGACCCAAGUCAGAAGGAGCGCCAAAGGCCAAAUCAAAACCCCGGAAGCGGUUAGAAGAAAGCCAAGGAGGCCCCAAGCCAGGGGCAGUG,0.235
CGUGGUGUCCACCCGCCCCUCCUGGUGCCCACGGUGGAUACUGCAUGAUGUGAACCUUGGUUUUGAACUCUGUUCCUGCCCCUCCCCGACCGCCCCAGCCUGUGCCCGCC,1.8
